Published values collected from several papers.
Numbered parts are unrelated; each lists some results of a single study.

Study 1
Target: Prothrombin, mature alpha-thrombin (F2, Homo sapiens, UniProt P00734)
Technique: aptamer microarray, sandwich
Form: DNA with 2'F-ANA
Sample: in vitro
Tested at: 200 nM
Setting: whole 15-mer aptamer, many near background
With: Cy3 exosite-II aptamer, 400 nM
Reading: higher = stronger binding
Endpoint: mean fluorescence intensity
Oligonucleotide: GGTTGGTGTGGTTGG
2'F-ANA at 2 3 6 8 9 10 12 13: 333 a.u.
2'F-ANA at 6 7 12 13: 641 a.u.
2'F-ANA at 2 4 5 9 13 14: 42.2 a.u.
2'F-ANA at 1 2 3 8 13 14: 71 a.u.
2'F-ANA at 3 5 6 7 10 11 13: 49.7 a.u.
2'F-ANA at 1 4 6 8 9 10 12: 64.7 a.u.
2'F-ANA at 3 4 5 6 8 9 10 12 13 15: 64.3 a.u.

Study 2
Target: Histone acetyltransferase KAT6A, both winged helices, GST fusion (KAT6A, Homo sapiens, UniProt Q92794, residues 1-181)
Technique: protein binding microarray
Form: double-stranded DNA, one strand shown
Sample: in vitro
Tested at: not given
Setting: 8-mer, flanks averaged, mean of 2 arrays, mostly near background
Reference: not given
Reading: higher = stronger binding
Endpoint: E-score
Construct (chain): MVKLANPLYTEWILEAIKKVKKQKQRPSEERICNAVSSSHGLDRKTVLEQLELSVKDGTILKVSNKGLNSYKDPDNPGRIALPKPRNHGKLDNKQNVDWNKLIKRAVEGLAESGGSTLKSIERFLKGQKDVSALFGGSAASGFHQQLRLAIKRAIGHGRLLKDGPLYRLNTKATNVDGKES
ATGGTACG: -0.00367
GTGTAGGA: -0.168
AACAACAA: -0.195
CCGAGAAA: 0.139
AGATTGCG: 0.17

Study 3
Target: Interferon regulatory factor 7, full length, phosphomimetic (IRF7, Homo sapiens, UniProt Q92985, residues 1-503, S471D/S472D/S475D/S476D/S477D/S483D/S484D/S487D)
Technique: protein-binding microarray
Form: double-stranded DNA, one strand shown
Sample: in vitro
Tested at: 2200 nM top
Setting: 60-bp whole probe
With: salmon DNA 0.4 mg/ml
Reference: random background probes
Reading: higher = stronger binding
Endpoint: fitted relative affinity
Construct (chain): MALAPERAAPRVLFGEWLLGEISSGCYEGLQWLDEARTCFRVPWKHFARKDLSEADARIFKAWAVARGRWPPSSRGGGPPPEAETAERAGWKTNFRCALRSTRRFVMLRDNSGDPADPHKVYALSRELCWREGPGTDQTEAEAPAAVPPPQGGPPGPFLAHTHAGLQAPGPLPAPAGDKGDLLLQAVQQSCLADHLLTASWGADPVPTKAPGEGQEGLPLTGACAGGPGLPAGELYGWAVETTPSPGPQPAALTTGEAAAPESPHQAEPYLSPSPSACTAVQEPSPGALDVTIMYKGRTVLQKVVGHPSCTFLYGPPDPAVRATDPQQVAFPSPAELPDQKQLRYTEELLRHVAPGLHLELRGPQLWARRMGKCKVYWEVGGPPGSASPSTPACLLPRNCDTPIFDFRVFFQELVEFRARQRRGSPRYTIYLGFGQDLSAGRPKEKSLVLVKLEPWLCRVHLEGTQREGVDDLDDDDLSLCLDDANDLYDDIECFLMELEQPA
GCCTAGCACGAGGGTTTCGGTTTCGGGACGTGCTAGGTCTTGATTCGCTTGACGCTGCTG: 12.6 z-score
GCCTAGCACGACGGGCTCGGTATCGGGACGTGCTAGGTCTTGATTCGCTTGACGCTGCTG: -0.846 z-score
GCCTAGCACCGCTCTGTGCTCTTTGGGCTGTGCTAGGTCTTGATTCGCTTGACGCTGCTG: 0.624 z-score
GCCTAGCACGTTTTTTTTTAATTGAAATCGTGCTAGGTCTTGATTCGCTTGACGCTGCTG: 0.853 z-score

Single results of other studies
PhoQ, residues 284 288 289 292 302 303 SLSLLA  fold induction (PhoP, residues 12 14 15 18 19 SMASL (Escherichia coli, UniProt P23836); Sort-seq, item: YFP reporter; E. coli; PhoQ-PhoP variant library, with: 10 µM Mg2+; reference: high Mg2+ state, higher = stronger signaling): 8.91

For quick reference, copied from above (study 1):
2'F-ANA at 1 2 3 8 13 14: 71 a.u.
2'F-ANA at 3 5 6 7 10 11 13: 49.7 a.u.
2'F-ANA at 1 4 6 8 9 10 12: 64.7 a.u.
